Published values gathered from unrelated publications.
± gives the spread as reported.

SMILES = Cc1nc(-c2ccc(OCC(C)C)c(C#N)c2)sc1C(=O)O; system = pediatric patients under sample A kg, plasma; conditions = oral, 20 mg once daily, fed, PopPK post hoc; quantity = Tmax at steady state; value = 1.43 ± 0.4 h
SMILES = CC1=C2C[C@H]3[C@@H](CC[C@@H]4C[C@H](NS(C)(=O)=O)CC[C@@]43C)[C@@H]2CC[C@@]2(C1)O[C@@H]1C[C@H](C)CN[C@H]1[C@H]2C; system = patients, plasma; conditions = oral, 130 mg single, day -7, cycle 1; quantity = Tmax; value = 6.44 h
SMILES = CC[C@H](C)[C@H](NC(=O)[C@H](CCC(=O)O)NC(=O)[C@H](CO)NC(=O)[C@@H](NC(=O)[C@@H](N)CO)C(C)C)C(=O)N[C@@H](CCC(N)=O)C(=O)N[C@@H](CC(C)C)C(=O)N[C@@H](CCSC)C(=O)N[C@@H](Cc1cnc[nH]1)C(=O)N[C@@H](CC(N)=O)C(=O)N[C@@H](CC(C)C)C(=O)NCC(=O)N[C@@H](CCCCN)C(=O)N[C@@H](Cc1cnc[nH]1)C(=O)N[C@@H](CC(C)C)C(=O)N[C@@H](CC(N)=O)C(=O)N[C@@H](CO)C(=O)N[C@@H](CCSC)C(=O)N[C@@H](CCC(=O)O)C(=O)N[C@@H](CCCN=C(N)N)C(=O)N[C@H](C(=O)N[C@@H](CCC(=O)O)C(=O)N[C@@H](Cc1c[nH]c2ccccc12)C(=O)N[C@@H](CC(C)C)C(=O)N[C@@H](CCCN=C(N)N)C(=O)N[C@@H](CCCCN)C(=O)N[C@@H](CCCCN)C(=O)N[C@@H](CC(C)C)C(=O)N[C@@H](CCC(N)=O)C(=O)N[C@@H](CC(=O)O)C(=O)N[C@H](C(=O)N[C@@H](Cc1cnc[nH]1)C(=O)N[C@@H](CC(N)=O)C(=O)N[C@@H](Cc1ccccc1)C(=O)O)C(C)C)C(C)C; system = postmenopausal osteoporotic women; conditions = subcutaneous, 20 µg; scale = reference: thigh over abdominal wall injection; quantity = Tmax prolongation; value = 1.5 min
SMILES = OC[C@H]1O[C@@H](c2ccc(Cl)c(Cc3ccc(O[C@H]4CCOC4)cc3)c2)[C@H](O)[C@@H](O)[C@@H]1O; system = healthy male, plasma; conditions = oral, range, with or without lobeglitazone; quantity = Tmax at steady state; value = 0.67 to 4 h
SMILES = CC[C@H](C)[C@H](NC(=O)[C@H](Cc1ccccc1)NC(=O)[C@H](CCC(=O)O)NC(=O)[C@H](CCCCNC(=O)COCCOCCNC(=O)COCCOCCNC(=O)CC[C@H](NC(=O)CCCCCCCCCCCCCCCCC(=O)O)C(=O)O)NC(=O)[C@H](C)NC(=O)[C@H](C)NC(=O)[C@H](CCC(N)=O)NC(=O)CNC(=O)[C@H](CCC(=O)O)NC(=O)[C@H](CC(C)C)NC(=O)[C@H](Cc1ccc(O)cc1)NC(=O)[C@H](CO)NC(=O)[C@H](CO)NC(=O)[C@@H](NC(=O)[C@H](CC(=O)O)NC(=O)[C@H](CO)NC(=O)[C@@H](NC(=O)[C@H](Cc1ccccc1)NC(=O)[C@@H](NC(=O)CNC(=O)[C@H](CCC(=O)O)NC(=O)C(C)(C)NC(=O)[C@@H](N)Cc1cnc[nH]1)[C@@H](C)O)[C@@H](C)O)C(C)C)C(=O)N[C@@H](C)C(=O)N[C@@H](Cc1c[nH]c2ccccc12)C(=O)N[C@@H](CC(C)C)C(=O)N[C@H](C(=O)N[C@@H](CCCNC(=N)N)C(=O)NCC(=O)N[C@@H](CCCNC(=N)N)C(=O)NCC(=O)O)C(C)C; test = LC-MS/MS; system = healthy fasting men, plasma; conditions = oral, 10 mg, taken with 240 mL water; quantity = tmax; value = 1.5 h
SMILES = C=C(C)[C@@H]1CC[C@]2(NCCN3CCS(=O)(=O)CC3)CC[C@]3(C)[C@H](CC[C@@H]4[C@@]5(C)CC=C(C6=CC[C@@](CF)(C(=O)O)CC6)C(C)(C)[C@@H]5CC[C@]43C)[C@@H]12; system = HIV-1-positive treatment-naive adults, plasma; conditions = oral, 40 mg single dose, day 1, with food; quantity = tmax; value = 4.42 h
SMILES = CC[C@H](C)[C@H](NC(=O)[C@H](Cc1ccccc1)NC(=O)[C@H](CCC(=O)O)NC(=O)[C@H](CCCCNC(=O)COCCOCCNC(=O)COCCOCCNC(=O)CC[C@H](NC(=O)CCCCCCCCCCCCCCCCC(=O)O)C(=O)O)NC(=O)[C@H](C)NC(=O)[C@H](C)NC(=O)[C@H](CCC(N)=O)NC(=O)CNC(=O)[C@H](CCC(=O)O)NC(=O)[C@H](CC(C)C)NC(=O)[C@H](Cc1ccc(O)cc1)NC(=O)[C@H](CO)NC(=O)[C@H](CO)NC(=O)[C@@H](NC(=O)[C@H](CC(=O)O)NC(=O)[C@H](CO)NC(=O)[C@@H](NC(=O)[C@H](Cc1ccccc1)NC(=O)[C@@H](NC(=O)CNC(=O)[C@H](CCC(=O)O)NC(=O)C(C)(C)NC(=O)[C@@H](N)Cc1cnc[nH]1)[C@@H](C)O)[C@@H](C)O)C(C)C)C(=O)N[C@@H](C)C(=O)N[C@@H](Cc1c[nH]c2ccccc12)C(=O)N[C@@H](CC(C)C)C(=O)N[C@H](C(=O)N[C@@H](CCCNC(=N)N)C(=O)NCC(=O)N[C@@H](CCCNC(=N)N)C(=O)NCC(=O)O)C(C)C; system = Japanese subjects; conditions = subcutaneous once weekly, 1.0 mg, median; quantity = tmax at steady state; value = 36 h
SMILES = Oc1ccc2c3c(cnc2c1)-c1ccc(C(F)(F)F)cc1O[C@@H]3c1ccc(OCCN2CC(CF)C2)cc1; system = healthy women, fasted, plasma; conditions = oral, 400 mg, single dose, median; quantity = tmax; value = 2 h
SMILES = Cc1ccc(NC(=O)c2ccc(CN3CCN(C)CC3)cc2)cc1Nc1nccc(-c2cncc(-c3oncc3C)c2)n1; system = healthy volunteers, plasma; conditions = oral, 200.0 mg once daily, day 7, 7-day dosing, mean; quantity = Tmax; value = 5 h
SMILES = CC(C)(CC(=O)N1CCCC1)NCC(=O)N1C[C@@H](F)C[C@H]1C#N; system = Chinese type 2 diabetes patients, plasma; conditions = oral, 200 mg once daily, multiple doses; quantity = Tmax at steady state; value = 4 h
SMILES = COc1cc(OC)c(/C=C/S(=O)(=O)Cc2ccc(OC)c(NCC(=O)O)c2)c(OC)c1; system = cancer patients, phase I, plasma; conditions = oral, 70 mg twice daily, day 1 cycle 1; quantity = Tmax; value = 1.17 ± 0.29 h
SMILES = CN[C@H](CC(C)C)C(=O)N[C@H]1C(=O)N[C@@H](CC(N)=O)C(=O)N[C@H]2C(=O)N[C@H]3C(=O)N[C@H](C(=O)N[C@H](C(=O)O)c4cc(O)cc(O)c4-c4cc3ccc4O)[C@H](O)c3ccc(c(Cl)c3)Oc3cc2cc(c3O[C@@H]2O[C@H](CO)[C@@H](O)[C@H](O)[C@H]2O[C@H]2C[C@](C)(N)[C@H](O)[C@H](C)O2)Oc2ccc(cc2Cl)[C@H]1O; test = microdialysis; system = pig, vertebral cancellous bone; conditions = intravenous infusion, 1000 mg, infusion 100 min; quantity = Tmax; value = 2.65 h
SMILES = Cc1ccc(Sc2ccccc2N2CCNCC2)c(C)c1; system = healthy men, plasma; conditions = oral, 10 mg once daily, fed, day 1; quantity = Tmax; value = 12.7 h
SMILES = C[C@@H](N)c1cc(Cl)ccc1Cn1c(=S)[nH]c(=O)c2[nH]ccc21; system = healthy Japanese volunteers, plasma; conditions = oral, 2.5 mg once daily, day 1, median; quantity = tmax; value = 1 h
